Published values from different studies.
Compare with care: the assays were run in different laboratories. ± marks the error that the study gave. In brackets after ≈: the same amount, converted by molar mass.
rep papain-like protease: Replicase polyprotein 1ab, papain-like protease (rep, Severe acute respiratory syndrome coronavirus 2, UniProt P0DTD1)
rep main protease: Replicase polyprotein 1ab, main protease (rep, Severe acute respiratory syndrome coronavirus 2, UniProt P0DTD1)
Chain of UniProt P41145 (whole entry, looked up): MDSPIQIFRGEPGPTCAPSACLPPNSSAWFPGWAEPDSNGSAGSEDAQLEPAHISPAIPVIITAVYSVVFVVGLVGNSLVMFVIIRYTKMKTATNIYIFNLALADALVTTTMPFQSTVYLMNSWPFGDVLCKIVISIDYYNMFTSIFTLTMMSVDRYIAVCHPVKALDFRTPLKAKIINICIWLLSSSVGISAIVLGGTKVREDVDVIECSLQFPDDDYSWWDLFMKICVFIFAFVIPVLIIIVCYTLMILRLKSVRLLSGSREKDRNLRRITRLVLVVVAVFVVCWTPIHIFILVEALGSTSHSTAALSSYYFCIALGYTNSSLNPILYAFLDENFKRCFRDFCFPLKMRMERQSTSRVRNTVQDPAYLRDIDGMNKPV
Chain of UniProt P41143 (whole entry, looked up): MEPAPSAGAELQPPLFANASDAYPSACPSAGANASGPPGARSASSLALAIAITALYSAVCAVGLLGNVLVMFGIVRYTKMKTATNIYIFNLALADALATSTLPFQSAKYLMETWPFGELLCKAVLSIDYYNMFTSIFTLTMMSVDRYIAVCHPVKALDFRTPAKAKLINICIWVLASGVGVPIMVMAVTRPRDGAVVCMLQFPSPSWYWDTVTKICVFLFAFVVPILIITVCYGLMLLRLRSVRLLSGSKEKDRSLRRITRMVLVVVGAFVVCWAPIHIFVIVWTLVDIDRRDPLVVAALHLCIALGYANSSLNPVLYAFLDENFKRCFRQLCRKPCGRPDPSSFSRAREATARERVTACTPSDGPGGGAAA

SMILES = CCC(C(=O)Nc1ccccc1)n1cccc2nc(SCc3ccc(F)cc3)nc1-2 (stereo not shown); target or system = rep papain-like protease; assay = enzyme activity, inhibitor; endpoint = IC50; result = 13.8 µM
SMILES = C[C@H]1CC[C@@H]2[C@H]([C@@H]1n1[se]c3ccccc3c1=O)C2(C)C; target or system = rep main protease; assay = enzyme activity, inhibitor; endpoint = IC50; result = 0.312 µM
SMILES = CC(C)C[C@H](NC(=O)[C@H](CO[C@@H]1O[C@H](CO)[C@@H](O[C@@H]2O[C@H](CO)[C@H](O)[C@H](O)[C@H]2O)[C@H](O)[C@H]1O)NC(=O)[C@H](CCCCN)NC(=O)[C@H](CC(C)C)NC(=O)C(C)(C)NC(=O)[C@H](CCCCN)NC(=O)[C@H](CCC(=O)O)NC(=O)C(C)(C)NC(=O)[C@H](CC(C)C)NC(=O)[C@H](CC(N)=O)NC(=O)[C@@H]1CCCN1C(=O)[C@H](CC(C)C)NC(=O)[C@H](Cc1ccccc1)NC(=O)CNC(=O)[C@H](NC(=O)[C@@H](N)Cc1ccc(O)cc1)[C@H](C)O)C(N)=O; target or system = OPRD1 (Homo sapiens, UniProt P41143); assay = ligand displacement, radioligand; setting = pH 7.5, cell membranes; endpoint = Ki; result = 0.035 µM
SMILES = CCn1ccc(-c2cc(-c3cnn(CCOC)c3)cc([C@@H](C)NC(=O)c3cc(OCCN(C)C)ccc3C)c2)n1; target or system = rep papain-like protease; assay = enzyme activity, inhibitor, FRET; endpoint = IC50; result = 0.165 µM
SMILES = CN1CCN(C(=O)C[C@H](Cc2ccc(F)cc2)NC(=O)[C@@H](Cc2ccc(Cl)cc2Cl)NC(=O)[C@H](N)Cc2ccccc2C#N)CC1; target or system = rep main protease; assay = enzyme activity, inhibitor, fluorescence; endpoint = IC50; result = 2 µM
SMILES = CC[C@H](C)[C@H](NC(=O)[C@H](CCCCN)NC(=O)[C@H](CCCCN)NC(=O)[C@H](CC(C)C)NC(=O)[C@H](Cc1c[nH]c2ccccc12)NC(=O)CN)C(=O)NCC(=O)N[C@@H](CCCCN)C(=O)N[C@@H](CCCCN)C(=O)N[C@H](C(=O)N[C@@H](CCC(=O)O)C(=O)N[C@@H](CCCNC(=N)N)C(=O)N[C@H](C(=O)NCC(=O)N[C@@H](CCC(N)=O)C(=O)N[C@@H](Cc1c[nH]cn1)C(=O)N[C@H](C(=O)N[C@@H](CCCNC(=N)N)C(=O)N[C@@H](CC(=O)O)C(=O)N[C@@H](C)C(=O)N[C@H](C(=O)N[C@H](C(=O)N[C@@H](CCC(N)=O)C(=O)N[C@H](C(=O)N[C@H](C(=O)NCC(=O)N[C@H](C(=O)N[C@@H](C)C(=O)N[C@@H](CCC(N)=O)C(=O)N[C@@H](CCC(N)=O)C(=O)N[C@@H](C)C(=O)N[C@@H](C)C(=O)N[C@@H](CC(N)=O)C(=O)N[C@H](C(=O)N[C@@H](C)C(=O)N[C@@H](C)C(=O)N[C@H](C(=O)N[C@@H](CC(C)C)C(=O)N[C@@H](CCCCN)C(N)=O)[C@@H](C)O)C(C)C)C(C)C)[C@@H](C)CC)[C@@H](C)O)[C@@H](C)CC)[C@@H](C)O)[C@@H](C)O)C(C)C)[C@@H](C)CC; target or system = Escherichia coli; assay = broth microdilution; test system = RKI 131/03, CAMHB with 10% mouse serum; setting = 150 mM NaCl; endpoint = MIC; result = 2 µg/mL (≈ 0.476 µM)
SMILES = Cc1cc(C(=O)COn2nnc3ccc(S(C)(=O)=O)cc32)c(C)n1C; target or system = rep main protease; assay = enzyme activity, inhibitor; endpoint = IC50; result = 4.67 µM
SMILES = NC(=O)c1cccc(CCN(CC[C@H](N)C(=O)O)C[C@H]2O[C@@H](n3cnc4c(N)ncnc43)[C@H](O)[C@@H]2O)c1; target or system = Replicase polyprotein 1ab, nsp14 (rep, Severe acute respiratory syndrome coronavirus 2, UniProt P0DTD1); assay = nsp14 methyltransferase activity, inhibitor, radiometric SPA; setting = 20 min, added: 3H-SAM 250 nM, RNA 50 nM; endpoint = IC50; result = 0.26 ± 0.13 µM
SMILES = Nc1ncnc2c1ncn2[C@@H]1O[C@H](CSCc2ccc3ccccc3c2Br)[C@@H](O)[C@H]1O; target or system = Replicase polyprotein 1ab, nsp16 with nsp10 (rep, Severe acute respiratory syndrome coronavirus 2, UniProt P0DTD1); assay = methyltransferase activity, radiometric; setting = added: 3H-SAM; endpoint = IC50; result = 87 ± 18 µM
SMILES = CCc1n[nH]c(NC(=O)c2ccc3c(c2)nnn3C)n1; target or system = rep main protease; assay = enzyme activity, inhibitor; endpoint = IC50; result = 7.37 µM
SMILES = Oc1ccc(/C=N/NC(=S)NC2CCCCC2)cc1; target or system = rep main protease; assay = enzyme activity, inhibitor, FRET; endpoint = IC50; result = 32.3 µM
SMILES = O=C(O[C@@H]1Cc2c(O)cc(O)cc2O[C@H]1c1ccc(O)c(O)c1)c1cc(O)c(O)c(O)c1; target or system = Replicase polyprotein 1ab, methyltransferase (rep, Severe acute respiratory syndrome coronavirus 2, UniProt P0DTD1); assay = enzyme activity, inhibitor; setting = pH 7.5; endpoint = IC50; result = 17.3 µM
SMILES = C=CC(=O)NC(CC(=C)C)C(=O)N1CC(C(=O)NC(Cc2ccccc2)C(=O)NC)C(c2cccc(C(F)(F)F)c2)C1 (stereo not shown); target or system = rep main protease; endpoint = IC50; result = 2 µM
SMILES = COc1cc(C(=O)N(CCC(=O)N2CCNCC2)Cc2cccc(Cl)c2)cc(OC)c1OC; target or system = Replicase polyprotein 1ab, nsp3 macrodomain (rep, Severe acute respiratory syndrome coronavirus 2, UniProt P0DTD1); assay = ADP-ribose binding, inhibitor, fluorescence polarization; setting = Mac1 domain, SARS-CoV-2; endpoint = IC50; result = 338 ± 4.9 µM
SMILES = CCCCCCCCCCCCCCCC(=O)N[C@@H](CCC(=O)NCCOCCOCCC(=O)NCCOCCOCCC(=O)NCCCC[C@H](NC(=O)[C@H](CC(=O)O)NC(=O)[C@H](CC(C)C)NC(=O)[C@H](Cc1ccc(O)cc1)NC(=O)[C@H](CCCCN)NC(=O)[C@H](CO)NC(=O)[C@H](Cc1ccc(O)cc1)NC(=O)[C@H](CC(=O)O)NC(=O)[C@H](CO)NC(=O)[C@@H](NC(=O)[C@H](Cc1ccccc1)NC(=O)[C@@H](NC(=O)CNC(=O)[C@H](CCC(N)=O)NC(=O)[C@@H](CO)NC(=O)[C@@H](N)Cc1c[nH]cn1)[C@@H](C)O)[C@@H](C)O)C(=O)N[C@@H](CCCNC(=N)N)C(=O)N[C@@H](CCCNC(=N)N)C(=O)N[C@@H](C)C(=O)N[C@@H](CCC(N)=O)C(=O)N[C@@H](CC(=O)O)C(=O)N[C@@H](Cc1ccccc1)C(=O)N[C@H](C(=O)N[C@@H](CCC(N)=O)C(=O)N[C@@H](Cc1c[nH]c2ccccc12)C(=O)N[C@@H](CC(C)C)C(=O)N[C@@H](CC(C)C)C(=O)N[C@@H](CC(N)=O)C(=O)N[C@H](C(=O)NCC(=O)NCC(=O)N1CCC[C@H]1C(=O)N[C@@H](CO)C(=O)N[C@@H](CO)C(=O)NCC(=O)N[C@@H](C)C(=O)N1CCC[C@H]1C(=O)N1CCC[C@H]1C(=O)N1CCC[C@H]1C(=O)N[C@@H](CO)C(N)=O)[C@@H](C)O)C(C)C)C(=O)O; assay = measured: ALP; test system = Sprague-Dawley rat, female; setting = subcutaneous, 500 µg/kg once daily, 14 days; endpoint = serum enzyme activity; result = 86.3 ± 23.8 U/L
SMILES = CC(C)C[C@H](NC(=O)[C@H](CO[C@@H]1O[C@H](CO)[C@@H](O)[C@H](O)[C@H]1O)NC(=O)[C@H](CCCCN)NC(=O)[C@H](CC(C)C)NC(=O)C(C)(C)NC(=O)[C@H](CCCCN)NC(=O)[C@H](CCC(=O)O)NC(=O)[C@H](C)NC(=O)[C@H](CC(C)C)NC(=O)[C@H](CC(N)=O)NC(=O)[C@@H]1CCCN1C(=O)[C@H](CC(C)C)NC(=O)[C@H](Cc1ccccc1)NC(=O)CNC(=O)[C@H](NC(=O)[C@@H](N)Cc1ccc(O)cc1)[C@H](C)O)C(N)=O; target or system = OPRK1 (Homo sapiens, UniProt P41145); assay = ligand displacement, radioligand; setting = pH 7.5, cell membranes; endpoint = Ki; result = 0.0023 µM
SMILES = CCN1C(=O)CC[C@@H]1c1c(O)cc2c(c1O)C[C@@H](OC(=O)c1cc(O)c(O)c(O)c1)[C@@H](c1ccc(O)c(O)c1)O2; target or system = rep main protease; assay = enzyme activity, inhibitor; endpoint = IC50; result = 46.7 µM
SMILES = COc1ccc(-c2cc(=O)c3c(O)c(Oc4ccc(-c5cc(=O)c6c(O)cc(O)cc6o5)cc4)c(OC)cc3o2)cc1; target or system = rep papain-like protease; assay = enzyme activity, inhibitor, fluorescence; setting = pH 8; endpoint = IC50; result = 26.3 µM
SMILES = O=C(Nc1ccccc1)c1ccccc1[Se][Se]c1ccccc1C(=O)Nc1ccccc1; target or system = rep main protease; assay = enzyme activity, inhibitor; setting = Mpro, without DTT; endpoint = IC50; result = 0.065 µM

Some of these lines once more:
SMILES = Nc1ncnc2c1ncn2[C@@H]1O[C@H](CSCc2ccc3ccccc3c2Br)[C@@H](O)[C@H]1O; target or system = Replicase polyprotein 1ab, nsp16 with nsp10 (rep, Severe acute respiratory syndrome coronavirus 2, UniProt P0DTD1); assay = methyltransferase activity, radiometric; setting = added: 3H-SAM; endpoint = IC50; result = 87 ± 18 µM
SMILES = CCc1n[nH]c(NC(=O)c2ccc3c(c2)nnn3C)n1; target or system = rep main protease; assay = enzyme activity, inhibitor; endpoint = IC50; result = 7.37 µM
SMILES = Oc1ccc(/C=N/NC(=S)NC2CCCCC2)cc1; target or system = rep main protease; assay = enzyme activity, inhibitor, FRET; endpoint = IC50; result = 32.3 µM
